Measurements from different studies.
Lines come from different studies, so protocols differ. “And” joins repeats or separate records; there may be more than shown.
Target: Protein-tyrosine kinase 2-beta (PTK2B, Homo sapiens, UniProt Q14289)
Sequence of UniProt Q14289 (whole entry, looked up): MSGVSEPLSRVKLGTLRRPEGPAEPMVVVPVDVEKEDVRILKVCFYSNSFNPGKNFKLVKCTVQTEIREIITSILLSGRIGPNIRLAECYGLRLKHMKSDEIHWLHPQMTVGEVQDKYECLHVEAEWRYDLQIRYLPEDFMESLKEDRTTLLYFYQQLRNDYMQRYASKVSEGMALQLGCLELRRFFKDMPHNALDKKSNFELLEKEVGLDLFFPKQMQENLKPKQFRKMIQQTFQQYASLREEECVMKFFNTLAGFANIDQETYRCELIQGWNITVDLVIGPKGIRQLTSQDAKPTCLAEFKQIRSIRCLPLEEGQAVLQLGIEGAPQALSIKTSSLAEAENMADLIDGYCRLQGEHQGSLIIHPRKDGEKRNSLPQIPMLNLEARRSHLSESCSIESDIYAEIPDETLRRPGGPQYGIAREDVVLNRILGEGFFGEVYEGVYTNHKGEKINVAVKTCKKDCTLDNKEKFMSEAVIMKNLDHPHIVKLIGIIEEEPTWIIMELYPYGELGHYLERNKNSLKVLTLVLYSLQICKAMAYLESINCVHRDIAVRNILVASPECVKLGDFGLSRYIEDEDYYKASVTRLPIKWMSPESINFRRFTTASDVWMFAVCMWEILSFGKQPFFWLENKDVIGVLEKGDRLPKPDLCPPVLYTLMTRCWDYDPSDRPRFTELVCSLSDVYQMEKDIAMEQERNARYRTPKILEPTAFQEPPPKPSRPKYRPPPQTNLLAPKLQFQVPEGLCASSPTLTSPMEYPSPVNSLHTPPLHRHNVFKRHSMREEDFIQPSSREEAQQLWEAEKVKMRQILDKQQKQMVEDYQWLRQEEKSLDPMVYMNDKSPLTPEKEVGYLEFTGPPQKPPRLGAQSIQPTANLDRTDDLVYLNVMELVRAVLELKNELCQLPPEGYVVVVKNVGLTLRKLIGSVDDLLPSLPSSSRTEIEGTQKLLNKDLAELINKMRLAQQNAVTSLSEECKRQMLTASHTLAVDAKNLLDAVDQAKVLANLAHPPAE

`Nc1ncc2c(n1)-c1c([nH]c3ccc(C4=CCOCC4)cc13)CCC2` has a remaining binding of 100% (binding, competition with immobilised ligand; 1 µM).
The remaining activity of `COCC12C(=O)NC3C4(C(OC)CC1O)C1CC5(O)C(OC)C(O)C(OC(C)=O)(C1C5OC(=O)c1ccccc1)C3(O)C(OC)C24` (stereo not shown) is reported as 106% and 96% (kinase activity, inhibitor, ProQinase kinase profiling; 25 µM; baseline: control).
The inhibition of `NC(=O)C[C@H]1CCc2sc3ncnc(O[C@H]4CC[C@H](N5CCOCC5)CC4)c3c21` is reported as 6% (enzyme activity, inhibitor; 10 µM).
`CNC(=O)C[C@H](Cc1ccc(C#N)cc1)NC(=O)c1cc(-c2ccc(CN[C@H](C)c3ccc(C)cc3)o2)ccc1Cl` — result for “activity vs control”: 114% (enzyme activity, inhibitor; 1 µM).
`C=CC(=O)Nc1cccc(-c2cnc3[nH]cc(C(=O)NC(C)(C)C)c3n2)c1` gave an inhibition of 9% (enzyme activity, inhibitor; 0.1 µM).
The remaining binding of `C=CC(=O)N1CCCC(n2c(=O)c3ncccc3n(Cc3ccc(Oc4ccccc4)cc3)c2=O)C1` (stereo not shown) is reported as 100% (cell-free assay, competition with immobilised ligand; 1 µM).
`CNC1C[S+]2CC[S+]3CC[S+](C1)[Ru-4]321([N]=C=S)[n]2c3ccc(OC)cc3c3c4c(c5cc(F)c[n+]1c5c32)C(=O)NC4=O` (stereo not shown) gave a remaining binding of 98% (KinomeScan; 0.1 µM; baseline: untreated).
With `O=C(Nc1ccc(Oc2ncnc3[nH]cc(-c4ccccc4)c23)c(F)c1)c1c2n(n(-c3cc(F)ccc3F)c1=O)CCCC2` the inhibition was -5% (enzyme activity, inhibitor; 0.5 µM).
`COc1cc(Nc2nccc(-c3cnn4nc(OC)ccc34)n2)cc(C(F)(F)F)c1` gave a remaining binding of 87% (binding, competition with immobilised ligand; 1 µM).
With `Nc1ncc(-c2cc(-c3cnn(CC(F)(F)F)c3)ncc2F)nc1C(=O)NC1CNCC(F)C1` (stereo not shown) the remaining activity was 100% (enzyme activity; 1 µM; baseline: DMSO control).
The remaining binding of `CCN1CCN(Cc2ccc(NC(=O)c3ccc(C)c(NC(=O)c4cncc(-c5cccs5)c4)c3)cc2C(F)(F)F)CC1` is reported as 26% (binding, competition with immobilised ligand; 1 µM).
`Cc1cccc(O[C@H]2CCC[C@@H](C(C)CNCc3ccncc3)C2)c1` (relative stereo) has an inhibition of 6% (enzyme activity, inhibitor; 1 µM).
For `O=C(Cc1ccc(OCc2ccccc2)cc1)NC1(C(=O)O)CCN(C(=O)c2ccc(-c3cccc(Cl)c3)cc2)CC1`, “activity vs control” read 91% (enzyme activity, inhibitor; 10 µM).
For `Cc1ccc(-c2c(/C=C(\C#N)C(=O)NC(C)C)n(CCCO)c3ncnc(N)c23)cc1`, the remaining binding was 100% (cell-free assay, competition with immobilised ligand; 1 µM).
With `CN1CC[C@@H](COc2cnc(C#N)cc2-c2ccn3nc(NC(=O)C4CC4)cc3c2)C1` the inhibition was 1% (enzyme activity, inhibitor; 1 µM).
With `C=CC(=O)N1CCc2ccc(-n3c(=O)ccc4cnc5ccc(-c6cnn(C)c6)cc5c43)cc21` the remaining binding was 100% (KINOMEscan; 1 µM; baseline: DMSO control).

For quick reference, copied from above:
With `CN1CC[C@@H](COc2cnc(C#N)cc2-c2ccn3nc(NC(=O)C4CC4)cc3c2)C1` the inhibition was 1% (enzyme activity, inhibitor; 1 µM).
